Results pooled from the literature.
Protocols differ between the studies behind these lines. ± gives the spread as reported.
Cell line: HEK293

| SMILES | test | conditions | measurement | result |
| --- | --- | --- | --- | --- |
| O=[C]=[Mn-2]12(=[C]=O)(=[C]=O)[O]c3cc4c(cc3=[N+]1CCc1ccccc1)[O][Mn-2](=[C]=O)(=[C]=O)(=[C]=O)([N+]=4CCc1ccccc1)[n+]1ccc(cc1)C(=O)OCCOC(=O)c1cc[n+]2cc1 | cell growth, MTT | 48 h, LED photolysed 1 h | IC50 | > 50 µM |
| CCN(C(=O)c1cc(F)ccc1Oc1nncnc1N1CCC2(C1)CN([C@H](CCCN(C)CCOC)C(C)C)C2)C(C)C | cell growth or viability | 7 days | GI50 | > 10 µM |
| O=[C]=[Mn-2]12(=[C]=O)(=[C]=O)[O]c3cc4c(cc3=[N+]1CCc1ccccc1)[O][Mn-2](=[C]=O)(=[C]=O)(=[C]=O)([N+]=4CCc1ccccc1)[n+]1ccc(cc1)C(=O)Nc1ccccc1NC(=O)c1cc[n+]2cc1 | MTT | 50 µM, 48 h, photolysed compound | viability reduction | 21% |
| c1ccc2c(-c3cn(-c4ccncc4)nn3)c3ccccc3c(-c3cn(-c4ccncc4)nn3)c2c1 | cell growth or viability, MTT | 24 h | IC50 | > 40 µM |
| CN1C(=O)[C@@H]2NC(=O)[C@@H]3NC(=O)[C@@H](c4ccc(O)cc4)NC(=O)[C@H](NC(=O)C(NC(=O)CCCCCN)c4ccc(O)cc4)Cc4c[nH]c5cc(ccc45)-c4cc3cc(c4O)Oc3ccc(cc3)C[C@H]1C(=O)N[C@@H](C(=O)O)c1ccc(O)c(c1)Oc1ccc2cc1 (stereo partly shown) | cell viability, CellTiter-Glo | 48 h, 1% DMSO | IC50 | unstable |
| CCCC[N+]1=c2cc3c4cc2[O][Mn-2]1(=[C]=O)(=[C]=O)(=[C]=O)[n+]1ccc(cc1)C(=O)NCCNC(=O)c1cc[n+](cc1)[Mn-2](=[C]=O)(=[C]=O)(=[C]=O)([O]3)[N+]=4CCCC | cell growth, MTT | 48 h, LED photolysed 1 h | IC50 | 45.4 ± 6.38 µM |
| CN1C(=O)[C@@H]2NC(=O)[C@@H]3NC(=O)[C@@H](c4ccc(O)cc4)NC(=O)[C@H](NC(=O)C(N)c4ccc(O)cc4)Cc4c[nH]c5cc(ccc45)-c4cc3cc(c4O)Oc3ccc(cc3)C[C@H]1C(=O)N[C@@H](C(=O)O)c1ccc(O)c(c1)Oc1ccc2cc1 (stereo partly shown) | cell viability, CellTiter-Glo | 48 h, 1% DMSO | IC50 | unstable |
| CC(C)C[C@H](NC(=O)[C@H](Cc1ccc(O)cc1)NC(=O)[C@@H]1CCCN1C(=O)[C@H](CCCNC(=N)N)NC(=O)[C@@H]1CCCN1C(=O)[C@H](CCCCN)NC(=O)[C@H](CC(=O)O)NC(=O)[C@@H]1CCCN1C(=O)[C@H](CCCNC(=N)N)NC(=O)C1(N)CCCCC1)C(=O)N1CCC[C@H]1C(=O)N[C@@H](CCCNC(=N)N)C(=O)N1CCC[C@H]1C(=O)N[C@@H](CCCNC(=N)N)C(=O)N1CCC[C@H]1C(=O)N1CCC[C@H]1C(=O)N[C@@H](CCCNC(=N)N)C(=O)N1CCC[C@H]1C(=O)N[C@H](C(=O)N[C@@H](CCCNC(=N)N)C(=O)N[C@@H](CSCc1cccc(CSC[C@H](NC(=O)[C@H](CCCNC(=N)N)NC(=O)[C@@H](NC(=O)[C@@H]2CCCN2C(=O)[C@H](CCCNC(=N)N)NC(=O)[C@@H]2CCCN2C(=O)[C@@H]2CCCN2C(=O)[C@H](CCCNC(=N)N)NC(=O)[C@@H]2CCCN2C(=O)[C@H](CCCNC(=N)N)NC(=O)[C@@H]2CCCN2C(=O)[C@H](CC(C)C)NC(=O)[C@H](Cc2ccc(O)cc2)NC(=O)[C@@H]2CCCN2C(=O)[C@H](CCCNC(=N)N)NC(=O)[C@@H]2CCCN2C(=O)[C@H](CCCCN)NC(=O)[C@H](CC(=O)O)NC(=O)[C@@H]2CCCN2C(=O)[C@H](CCCNC(=N)N)NC(=O)C2(N)CCCCC2)C(C)C)C(=O)NN)c1)C(=O)NN)C(C)C | cytotoxicity | highest tested 125 µg/mL | IC50 | > 125 µg/mL |
| O=C(O)C(CO)NCc1cc(Cl)c(OCc2cccc(-c3ccccc3)c2Br)cc1OCc1cccnc1 (stereo not shown) | MTT |  | IC50 | > 10 µM |
| CC(=O)OC[C@H]1O[C@@H](n2cc(CSc3nc4ccccc4n3Cc3cn([C@@H]4O[C@H](COC(C)=O)[C@@H](OC(C)=O)C(OC(C)=O)[C@H]4OC(C)=O)nn3)nn2)[C@H](OC(C)=O)C(OC(C)=O)[C@@H]1OC(C)=O (stereo in doubt) | MTT | 15.6 ppm | cytotoxicity | 4.09% |

Excerpt of the above:
| SMILES | test | conditions | measurement | result |
| --- | --- | --- | --- | --- |
| CC(=O)OC[C@H]1O[C@@H](n2cc(CSc3nc4ccccc4n3Cc3cn([C@@H]4O[C@H](COC(C)=O)[C@@H](OC(C)=O)C(OC(C)=O)[C@H]4OC(C)=O)nn3)nn2)[C@H](OC(C)=O)C(OC(C)=O)[C@@H]1OC(C)=O (stereo in doubt) | MTT | 15.6 ppm | cytotoxicity | 4.09% |
